Results from different studies.
Each line is one published result; not all experiments were run side by side. ± marks the error that the study gave.

SMILES | test | system | setting | measurement | value
CC[C@@H]1CN2CCc3c([nH]c4cccc(OC)c34)[C@@H]2C[C@@H]1/C(=C\OC)C(=O)OC | – | 129S1 mouse, brain | subcutaneous, 140 mg/kg, 15 min | brain concentration | 16.6 ± 2.7 µM
CC(CCC(=O)NCC(=O)O)C1CCC2C3C(O)CC4CC(OC5OC(C(=O)O)C(O)C(O)C5O)CCC4(C)C3CCC12C (stereo not shown) | – | human, SLCO1B1 *14/*35, plasma | geometric mean, sex-adjusted | plasma concentration | 12.9 ng/mL
CC(=CCC(O)C(C)=Cc1csc(C)n1)CC=CC(C)C(O)C(C)C(=O)C(C)(C)C(O)CC(=O)O (stereo not shown) | – | human, plasma | intravenous infusion, 6.5 mg/m2 KOS-1584, 3 h infusion, cycle 1 | AUC | 55 ± 27.1 ng·h/mL
CC(C)C[C@@H](NC(=O)[C@@H](Cc1ccccc1)NC(=O)[C@H](N)Cc1ccccc1)C(=O)N[C@H](CCCCN)C(=O)N1CCC(N)(C(=O)O)CC1 | – | human, plasma | intravenous, 15 µg/kg | AUC(0-t) | 246 ng·h/mL
[11CH3]n1c(=O)n(CCCO)c(=O)c2c1nc(Oc1cccc(OC(F)(F)F)c1)n2Cc1ccc(Cl)cc1 | PET | cynomolgus monkey, male, whole brain | – | time to maximum SUV | 6 to 10 min
Cn1ccc(-c2ccc(Cn3cc(C(=O)N[C@H]4CCCC[C@@H]4O)c4c(F)cc(F)cc43)cn2)n1 | – | rat Sprague-Dawley, male, brain, plasma | intravenous, 0.20 to 0.25 mg/kg, 0.25 h, cassette dosing | brain/plasma ratio Kp | 0.115
CC(C)C[C@@H](N)C(=O)NCC(=O)N[C@H](C)C(=O)N[C@H](CO)C(=O)N[C@H](Cc1c[nH]c2ccccc12)C(=O)N[C@H](Cc1c[nH]cn1)C(=O)N[C@H](CCCNC(=N)N)C(=O)N1CCC[C@@H]1C(=O)N[C@H](CC(=O)O)C(=O)N[C@H](CCCCN)C(=O)N[C@H](CS)C(=O)N[C@H](CS)C(=O)N[C@H](CC(C)C)C(=O)NCC(=O)N[C@H](Cc1ccc(O)cc1)C(=O)N[C@H](CCC(N)=O)C(=O)N[C@H](CCCCN)C(=O)N[C@H](CCCNC(=N)N)C(=O)N1CCC[C@@H]1C(=O)N[C@H](CC(C)C)C(=O)N1CCC[C@@H]1C(N)=O | LC-MS/MS | rat plasma | 5000 ng/mL, 12 h, 25 °C, room temperature before extraction | measured concentration | 5710 ± 100 ng/mL
CC[C@H](C)[C@H](NC(=O)[C@H](CC(C)C)NC(=O)CNC(=O)[C@H](Cc1c[nH]cn1)NC(=O)[C@@H](NC(=O)[C@H](Cc1c[nH]c2ccccc12)NC(=O)[C@H](CCCCN)NC(=O)CNC(=O)[C@@H](NC(=O)[C@H](Cc1c[nH]cn1)NC(=O)[C@H](Cc1c[nH]cn1)NC(=O)[C@@H](NC(=O)CNC(=O)[C@H](Cc1c[nH]cn1)NC(=O)[C@H](Cc1ccccc1)NC(=O)[C@H](CC(C)C)NC(=O)[C@H](CC(C)C)NC(=O)CNC(=O)[C@H](CC(C)C)NC(=O)[C@@H](N)Cc1ccccc1)C(C)C)C(C)C)[C@@H](C)CC)C(=O)N[C@@H](Cc1c[nH]cn1)C(=O)NCC(=O)N[C@@H](Cc1c[nH]cn1)C(=O)N[C@@H](Cc1c[nH]cn1)C(N)=O | – | zebrafish embryos | 1 h, 4, 28, 52 hpf | acute toxic concentration | 5 µg/mL
CC(C)[C@H](NC(=O)CNC(=O)[C@H](CCC(N)=O)NC(=O)[C@H](C)N)C(=O)O | – | human | 10 mg/kg, 3 days, thrice daily dosing | discontinuation due to adverse events | 0%
CC[C@H](C)C(=O)N1CCC(NC(=O)Nc2ccc(OC(F)(F)F)c(F)c2)CC1 | – | healthy volunteers | oral, 0.5 to 24 mg, single dose | tolerability | not toxic
